Experimental data pooled from the literature.
Numbered parts are unrelated; each lists some results of a single study.

Block 1
Target: Interferon regulatory factor 5, full length, phosphomimetic (IRF5, Homo sapiens, UniProt Q13568-2, residues 1-514, K96S/S451D/S453D/S456D/S462D)
Method: protein-binding microarray
Form: double-stranded DNA, one strand shown
Medium: in vitro
Concentration: 250 nM
Setting: 60-bp whole probe
With: salmon DNA 0.4 mg/ml
Relative to: random background probes
Direction: higher = stronger binding
Sequence	log fluorescence [z-score]
GCCTAGCACTGTCTTCCCCTCTCTTTCCAAGTGCTAGTCTTGATTCGCTTGACGCTGCTG	0.495
GCCTAGCACGACGATCACAGACTGGAGACGTGCTAGGTCTTGATTCGCTTGACGCTGCTG	-0.597
GCCTAGCACTTAGGTTTCATTCTCCTTTAGTGCTAGGTCTTGATTCGCTTGACGCTGCTG	3.32

Block 2
Target: Histone acetyltransferase KAT6A, both winged helices, GST fusion (KAT6A, Homo sapiens, UniProt Q92794, residues 1-181)
Method: protein binding microarray
Form: double-stranded DNA, one strand shown
Medium: in vitro
Concentration: not given
Setting: 8-mer, flanks averaged, mean of 2 arrays, mostly near background
Relative to: not given
Direction: higher = stronger binding
Target sequence (chain): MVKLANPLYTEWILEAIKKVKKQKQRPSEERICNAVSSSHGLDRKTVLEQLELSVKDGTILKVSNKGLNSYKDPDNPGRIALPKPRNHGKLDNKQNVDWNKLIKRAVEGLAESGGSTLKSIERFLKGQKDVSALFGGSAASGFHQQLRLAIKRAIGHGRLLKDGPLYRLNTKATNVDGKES
Sequence	E-score
TGTGCAAA	-0.108
ATCACCGG	0.157
ATTATAAA	-0.0245
GCCACGGA	0.191

Block 3
Target: Sal-like protein 4, full length isoform A (SALL4, Homo sapiens, UniProt Q9UJQ4, residues 1-1053)
UniProt Q9UJQ4, sequence (whole entry, looked up): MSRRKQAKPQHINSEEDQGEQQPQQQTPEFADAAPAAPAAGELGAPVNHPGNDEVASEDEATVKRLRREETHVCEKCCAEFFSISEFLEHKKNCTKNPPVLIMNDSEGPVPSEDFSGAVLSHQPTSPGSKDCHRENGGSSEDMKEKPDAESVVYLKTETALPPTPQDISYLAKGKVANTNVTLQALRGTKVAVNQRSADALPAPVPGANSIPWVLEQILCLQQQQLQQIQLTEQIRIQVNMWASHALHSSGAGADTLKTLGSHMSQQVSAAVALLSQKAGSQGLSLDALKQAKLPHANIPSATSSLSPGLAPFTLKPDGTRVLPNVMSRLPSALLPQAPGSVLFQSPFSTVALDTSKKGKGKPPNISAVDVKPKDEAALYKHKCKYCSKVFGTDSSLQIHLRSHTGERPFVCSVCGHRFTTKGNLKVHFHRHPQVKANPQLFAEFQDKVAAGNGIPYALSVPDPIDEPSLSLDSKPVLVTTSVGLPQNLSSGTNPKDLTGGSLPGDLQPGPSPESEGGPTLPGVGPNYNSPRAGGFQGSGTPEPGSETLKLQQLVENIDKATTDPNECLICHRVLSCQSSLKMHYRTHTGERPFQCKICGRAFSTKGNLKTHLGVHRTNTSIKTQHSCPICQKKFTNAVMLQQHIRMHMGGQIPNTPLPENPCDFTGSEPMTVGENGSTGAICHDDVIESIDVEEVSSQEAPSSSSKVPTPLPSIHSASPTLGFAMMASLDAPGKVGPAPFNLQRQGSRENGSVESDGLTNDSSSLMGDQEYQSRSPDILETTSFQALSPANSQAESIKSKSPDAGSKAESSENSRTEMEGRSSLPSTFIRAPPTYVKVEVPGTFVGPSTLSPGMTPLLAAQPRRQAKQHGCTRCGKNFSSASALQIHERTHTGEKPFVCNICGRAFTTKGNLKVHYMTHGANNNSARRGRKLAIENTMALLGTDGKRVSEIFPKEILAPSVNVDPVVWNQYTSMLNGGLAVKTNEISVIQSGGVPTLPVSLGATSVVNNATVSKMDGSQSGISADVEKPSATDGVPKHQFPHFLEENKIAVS
Method: universal PBM
Form: double-stranded DNA, one strand shown
Medium: in vitro
Concentration: 600 nM
Setting: 8-mer, flanks averaged, mean of replicates
Direction: higher = stronger binding
Sequence	E-score
CAGTTTAA	0.0902
ACCCTCCG	-0.348
AACTCCAA	0.00933

Other studies, line by line
Molecule	target	test	test system	setting	scale	quantity	result
PhoQ, residues 284 288 289 292 302 303 SSCCRF	PhoP, residues 12 14 15 18 19 GQAIL (Escherichia coli, UniProt P23836)	Sort-seq, measured: YFP reporter	E. coli	PhoQ-PhoP variant library, with: 10 µM Mg2+	relative to: high Mg2+ state, higher = stronger signaling	fold induction	20.9

Some of these lines once more (block 1):
Sequence	log fluorescence [z-score]
GCCTAGCACGACGATCACAGACTGGAGACGTGCTAGGTCTTGATTCGCTTGACGCTGCTG	-0.597
GCCTAGCACTTAGGTTTCATTCTCCTTTAGTGCTAGGTCTTGATTCGCTTGACGCTGCTG	3.32
